Experimental data collected from several papers.
Each numbered part is a random draw from the data of one study; scales do not carry over between parts. Substitutions count along the parent as printed.

Block 1
Target: Centromere-binding protein 1, full length, N-terminal tag (CBF1, Saccharomyces cerevisiae, UniProt P17106, residues 1-351)
Chain of UniProt P17106 (whole entry, looked up): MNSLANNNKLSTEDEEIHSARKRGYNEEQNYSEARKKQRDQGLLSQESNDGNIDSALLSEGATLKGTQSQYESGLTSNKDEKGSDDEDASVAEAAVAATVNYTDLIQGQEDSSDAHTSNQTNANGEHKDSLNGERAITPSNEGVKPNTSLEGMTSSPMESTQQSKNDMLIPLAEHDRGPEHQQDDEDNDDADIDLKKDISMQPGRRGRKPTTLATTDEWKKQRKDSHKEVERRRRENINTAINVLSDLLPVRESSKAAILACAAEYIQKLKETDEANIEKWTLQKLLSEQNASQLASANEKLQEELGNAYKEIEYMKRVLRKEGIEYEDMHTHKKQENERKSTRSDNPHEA
Method: protein-binding microarray
Molecule type: double-stranded DNA, one strand shown
Matrix: in vitro
Concentration: 0.8 µM
Setting: whole 60-bp probe, no competitor
Direction: higher = stronger binding
`GAACCGTACAACCGTCATCAGACTTGCATGGAATAGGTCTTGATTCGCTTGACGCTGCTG` gave a fluorescence intensity of 528 a.u.
`CCTAACTACTATAGATACATCAGATAGCTTCGTACAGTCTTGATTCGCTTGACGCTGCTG` has a fluorescence intensity of 529 a.u.
The fluorescence intensity of `CTAAATCCCCTGAGTCATCAGAATCTGACTCAGTTCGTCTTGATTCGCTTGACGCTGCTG` is reported as 484 a.u.
The fluorescence intensity of `GAAAGGTCCATCGGAAAGGTGACTCTTTTAAATTAGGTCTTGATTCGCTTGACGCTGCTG` is reported as 518 a.u.
For `GAATGTGATAGTGAGAGTGACACGTATTAATATTAGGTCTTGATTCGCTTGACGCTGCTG`, the fluorescence intensity was 544 a.u.
With `TGTACGAAGCTATTAGTCGTGCTTATAGTAGTTAGGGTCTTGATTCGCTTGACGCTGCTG` the fluorescence intensity was 532 a.u.
For `GAACCTCCGCACCCGCACGTGACTACACCGGGTTAGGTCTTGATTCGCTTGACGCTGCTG`, the fluorescence intensity was 18600 a.u.
`CTATTTTTCCGCTTTCGGGTGACACTTAATTTATTCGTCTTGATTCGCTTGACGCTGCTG` has a fluorescence intensity of 544 a.u.
`CTATATTTGAAAGGTCACCCGCCTATCGCAAAATTCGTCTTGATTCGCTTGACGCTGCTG` has a fluorescence intensity of 587 a.u.
The fluorescence intensity of `GAAGACTTTTCTGGTCACGTGACCTTTTTTTCTTAGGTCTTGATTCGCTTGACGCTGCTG` is reported as 64200 a.u.
With `GAAATATTGCACGTTCCGACCACGATTATAGAGTAGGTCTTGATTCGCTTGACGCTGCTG` the fluorescence intensity was 842 a.u.
The fluorescence intensity of `CTAATTTTTCAATATTTCACCTGTTTATCGGTGTTCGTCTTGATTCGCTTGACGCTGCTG` is reported as 497 a.u.
`CCTAACTACTATAGACACGCTCTATAGCTTCGTACAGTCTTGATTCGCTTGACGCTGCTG` has a fluorescence intensity of 494 a.u.
The fluorescence intensity of `CTACCCTGGTACCACCACCTAATATCTGGCTTTTTCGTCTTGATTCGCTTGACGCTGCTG` is reported as 513 a.u.
`GAAGGGGAAGGCACAGGAGATACCCCCACTAAATAGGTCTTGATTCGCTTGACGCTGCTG` gave a fluorescence intensity of 479 a.u.
The fluorescence intensity of `CCTAACTACTATAATCCAGTCACATAGCTTCGTACAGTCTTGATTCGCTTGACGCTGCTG` is reported as 589 a.u.

Block 2
Target: CCNB2, cyclin fold, Cln2 fusion (human)
Method: yeast growth competition, sequencing
Matrix: yeast
Setting: weak parent motif
Relative to: not given
Direction: higher = stronger binding
Parent: CDC25A docking peptide (human); PPHRRRLLFACSP
`R6C` — result for “normalised enrichment score”: 0.243.
`R5V`: “normalised enrichment score” 0.889.
For `P2I`, “normalised enrichment score” read 0.661.
`C11D` — result for “normalised enrichment score”: 0.219.
For `C11V`, “normalised enrichment score” read 0.0784.
`P2M` — result for “normalised enrichment score”: 0.643.
Under “normalised enrichment score”, `F9Q` is recorded as 0.546.
`H3R` — result for “normalised enrichment score”: 0.784.
Under “normalised enrichment score”, `F9A` is recorded as 0.847.
For `S12A`, “normalised enrichment score” read 0.5.
Under “normalised enrichment score”, `S12P` is recorded as 0.433.
`H3L` — result for “normalised enrichment score”: 0.917.
For `H3P`, “normalised enrichment score” read 0.197.
`P2Q`: “normalised enrichment score” 1.13.
`P13H`: “normalised enrichment score” 0.561.
For `S12Y`, “normalised enrichment score” read 0.598.

Block 3
Target: Histone acetyltransferase KAT6A, winged helix 2, GST fusion (KAT6A, Homo sapiens, UniProt Q92794, residues 85-181)
Method: protein binding microarray
Molecule type: double-stranded DNA, one strand shown
Matrix: in vitro
Concentration: not given
Setting: 8-mer, flanks averaged, mean of 2 arrays, mostly near background
Relative to: not given
Direction: higher = stronger binding
Residues (chain): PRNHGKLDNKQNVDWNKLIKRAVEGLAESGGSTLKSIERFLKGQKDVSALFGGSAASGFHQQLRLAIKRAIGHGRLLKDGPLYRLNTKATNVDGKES
With `GACCCGTA` the E-score was -0.0118.
`GCTTTGCC` gave an E-score of 0.0265.
`AAATGTTC` has an E-score of -0.0457.
The E-score of `AGTGGACA` is reported as 0.0708.
`CCTGGAAA` gave an E-score of 0.0642.
`CATGACCC` has an E-score of -0.126.
For `AGAAGGCA`, the E-score was -0.0934.
For `CGGAGCTC`, the E-score was -0.00732.
`GGATCCCA` gave an E-score of -0.00359.
`AACCCCAT` gave an E-score of -0.179.
For `GCCGGCAA`, the E-score was 0.0851.
The E-score of `CAACTGAA` is reported as -0.191.
The E-score of `AGCGCCCA` is reported as -0.0872.
With `GATCTCTA` the E-score was -0.0528.
The E-score of `AAATTCAA` is reported as 0.0262.
For `GCTCTCGA`, the E-score was 0.0457.
`AAATACTC` gave an E-score of -0.0523.
The E-score of `CATTGTAC` is reported as -0.15.
`ACGCAAAC` has an E-score of 0.0729.
`TCATTACA` has an E-score of -0.00254.
With `CGACCGCA` the E-score was 0.105.
`GCTCAATA` gave an E-score of -0.0518.
With `ATATTATC` the E-score was 0.00931.
`AATGAGGT` gave an E-score of -0.0685.

Block 4
Target: RNA binding protein fox-1 homolog 2, RRM domain, GST-SBP tag (RBFOX2, Homo sapiens, UniProt O43251-10, residues 100-194)
Method: RNA Bind-n-Seq
Molecule type: RNA
Matrix: in vitro
Concentration: 365 nM
Setting: natural RNA segment, single round, ends assumed
Relative to: no-protein control
Direction: higher = stronger binding
Residues (chain): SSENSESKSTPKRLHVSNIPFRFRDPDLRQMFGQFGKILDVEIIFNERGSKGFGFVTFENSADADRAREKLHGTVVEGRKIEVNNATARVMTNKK
Under “RBNS enrichment (R)”, `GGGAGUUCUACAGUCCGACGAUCACACGUUUGUUCUAUGUUGUAAGUGUCACUCUGAAAGAAGUUUAACAGUAUCUGGUUUUUAAAAUAUUUGCUAUGUAGUAAUGGGCAUUUUAAGAUAUAGUUAAGAUAUAUGGAAUUCUCGGGUGCCAA` is recorded as 0.736.
For `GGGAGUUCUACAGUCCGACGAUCUGGCCCCACCUCCCUCAAGUCUGCGCCCCGUCCCCAGCCAGACCCACUCGCUGCCGGGACCCUUUCACUGCCCCGGUGGAGUGAAUAGAGGAUGAGGGGCCCUGACCCUGUGGAAUUCUCGGGUGCCAA`, “RBNS enrichment (R)” read 0.318.
`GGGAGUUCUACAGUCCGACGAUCAACCUAGGAAGGGAACCAAGGAGGCUGGCCCUUGCUCCCUGACUCUUUCAGUGACCACCACCUCCCUAUGCAGAAGGGAUGUCAAUGUCAACAGCAGGGACUGAGACCUUUGGAAUUCUCGGGUGCCAA`: “RBNS enrichment (R)” 0.688.
Under “RBNS enrichment (R)”, `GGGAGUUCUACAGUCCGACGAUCUGAGUUCAGAGGCAGCCGGAGCCUGGGGAGCCAUGCCCCAGGCCCUGUGACAUCCCCUCGCCCUGCAUGGAGCCUGUGUGUCACAGAAUCGCCCAACACUCCUGCACAUCUGGAAUUCUCGGGUGCCAA` is recorded as 1.34.
`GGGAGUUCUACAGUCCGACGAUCAGAGGGUGAGAUGGAUCCCAUUAACUAAUAUAGGCAUUGUCAGUGAUUUAUGCUGGUGGAGGUGUUGUUUGUCCUAUGGAAGAUAUUUUCUACUGAGCUGGGCUACUGUAUGGAAUUCUCGGGUGCCAA` — result for “RBNS enrichment (R)”: 0.682.
`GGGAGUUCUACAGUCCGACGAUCAACCUUUAAACUUAAAAUUGAUUACAUUGAGCCUAUUCAGAAAAAAAAUUAUAUAGGUUCUGAUGAAAGCUUCAUAAUUUCACCCUGUGACUAUCCUGAAAAGAAAUAAUUGGAAUUCUCGGGUGCCAA`: “RBNS enrichment (R)” 0.834.
Under “RBNS enrichment (R)”, `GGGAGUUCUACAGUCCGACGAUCUGUCUUAGUGGAGUCAGAGCCCUGUUUGGUAUGUGUUUUUCAUGCUAAGUCUAAAUUGUCUUUUCAUUUCAUGAUGCAUUUUUUCUCUUUUGUCAGGAUAACAUCAUAUAUGGAAUUCUCGGGUGCCAA` is recorded as 0.283.
Under “RBNS enrichment (R)”, `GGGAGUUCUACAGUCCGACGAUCCUUAGUCUCAAGGGCUAGCAUCCCUGAGGAGCCAGGCCGGGCCGAAUCCCCUCCCUGUCAAAGCUGUCACUUCGCGUGCCCUCGCUGCUUCUGUGUGUGGUGAGCAGAAGUGGAAUUCUCGGGUGCCAA` is recorded as 0.569.
`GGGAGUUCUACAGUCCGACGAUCUUUGUGAGCUCUGGGCUUGUCUCCAUGGGAACAGGGGUGCCUUCUUAGUGAGCUCAUUUCACACAGAUCGAGGGGGUAUGCGUGGGGGAGUUGUGAGUGAGCUCAGCUCCUGGAAUUCUCGGGUGCCAA` — result for “RBNS enrichment (R)”: 6.25.
`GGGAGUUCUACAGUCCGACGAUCACCCCCGUGAGACCUCAGCAGGACACUGACCACUGAGGACCAGUCAUCAUGACACAGCAAGCCGUGACCCCUCUGUCUGCUGUACUGGCCCAGCCUCCUGCUCGCACCUCUGGAAUUCUCGGGUGCCAA` — result for “RBNS enrichment (R)”: 0.547.
For `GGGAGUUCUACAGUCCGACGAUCGCACGCCGCCUCCUGCCUCCCUGAGCGCUGCUGCAUCCUGCACGCCCUGGAACCCAGGAGCGCCCCAGCAACCCUGACUCCCUGCCAGCACGUCCAAGGCUGCUUACCCCUGGAAUUCUCGGGUGCCAA`, “RBNS enrichment (R)” read 8.52.
`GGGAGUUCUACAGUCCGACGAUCCUCUACCUCCUCCUUUCCCAAUUAAUUUCAACCAUAGUACGAUGUUUGGGGUUGUAUAUUUUGUUAAAAAGAUUAAAGAAUUUAUGAGUUGGCUUGGACAAGUUUAACUUUGGAAUUCUCGGGUGCCAA` — result for “RBNS enrichment (R)”: 0.962.

Further values, each from its own experiment
The fold induction of `PhoQ, residues 284 288 289 292 302 303 TVTVVA` is reported as 7.89 (PhoP, residues 12 14 15 18 19 VQALL (Escherichia coli, UniProt P23836); Sort-seq, item: YFP reporter; E. coli; PhoQ-PhoP variant library, added: 10 µM Mg2+; relative to: high Mg2+ state, higher = stronger signaling).

Some of these lines once more (block 4):
For `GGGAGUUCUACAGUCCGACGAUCUGGCCCCACCUCCCUCAAGUCUGCGCCCCGUCCCCAGCCAGACCCACUCGCUGCCGGGACCCUUUCACUGCCCCGGUGGAGUGAAUAGAGGAUGAGGGGCCCUGACCCUGUGGAAUUCUCGGGUGCCAA`, “RBNS enrichment (R)” read 0.318.
`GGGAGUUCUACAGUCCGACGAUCCUCUACCUCCUCCUUUCCCAAUUAAUUUCAACCAUAGUACGAUGUUUGGGGUUGUAUAUUUUGUUAAAAAGAUUAAAGAAUUUAUGAGUUGGCUUGGACAAGUUUAACUUUGGAAUUCUCGGGUGCCAA` — result for “RBNS enrichment (R)”: 0.962.
Under “RBNS enrichment (R)”, `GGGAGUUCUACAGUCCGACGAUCUGAGUUCAGAGGCAGCCGGAGCCUGGGGAGCCAUGCCCCAGGCCCUGUGACAUCCCCUCGCCCUGCAUGGAGCCUGUGUGUCACAGAAUCGCCCAACACUCCUGCACAUCUGGAAUUCUCGGGUGCCAA` is recorded as 1.34.
For `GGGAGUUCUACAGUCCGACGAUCGCACGCCGCCUCCUGCCUCCCUGAGCGCUGCUGCAUCCUGCACGCCCUGGAACCCAGGAGCGCCCCAGCAACCCUGACUCCCUGCCAGCACGUCCAAGGCUGCUUACCCCUGGAAUUCUCGGGUGCCAA`, “RBNS enrichment (R)” read 8.52.
`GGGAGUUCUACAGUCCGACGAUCUUUGUGAGCUCUGGGCUUGUCUCCAUGGGAACAGGGGUGCCUUCUUAGUGAGCUCAUUUCACACAGAUCGAGGGGGUAUGCGUGGGGGAGUUGUGAGUGAGCUCAGCUCCUGGAAUUCUCGGGUGCCAA` — result for “RBNS enrichment (R)”: 6.25.
Under “RBNS enrichment (R)”, `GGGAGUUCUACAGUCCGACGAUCCUUAGUCUCAAGGGCUAGCAUCCCUGAGGAGCCAGGCCGGGCCGAAUCCCCUCCCUGUCAAAGCUGUCACUUCGCGUGCCCUCGCUGCUUCUGUGUGUGGUGAGCAGAAGUGGAAUUCUCGGGUGCCAA` is recorded as 0.569.
`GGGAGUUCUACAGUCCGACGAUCAGAGGGUGAGAUGGAUCCCAUUAACUAAUAUAGGCAUUGUCAGUGAUUUAUGCUGGUGGAGGUGUUGUUUGUCCUAUGGAAGAUAUUUUCUACUGAGCUGGGCUACUGUAUGGAAUUCUCGGGUGCCAA` — result for “RBNS enrichment (R)”: 0.682.
`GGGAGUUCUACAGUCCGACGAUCAACCUAGGAAGGGAACCAAGGAGGCUGGCCCUUGCUCCCUGACUCUUUCAGUGACCACCACCUCCCUAUGCAGAAGGGAUGUCAAUGUCAACAGCAGGGACUGAGACCUUUGGAAUUCUCGGGUGCCAA`: “RBNS enrichment (R)” 0.688.
